Published values gathered from unrelated publications.
Values joined by “and” are separate records of one study, mostly repeats; a detail may differ.
Technique: steady-state kinetics
B1: protein (Rheum palmatum, UniProt A0A7L9A2S6); chain MKKTELVFLPAPAPGHLVSTVEFSKRLIARDARLTVTILVISSPFSRGAQTNPSPGIRYVTLPQVDVPQHLMKDSIEHTISVYIASHAPHVRDAVAALQTESTVHVAGLFLDMFCTPMIDVANELGLPSYVFFCSSAGFLGLLLHLPVHSQPRFDETGLDVLIPSFQNPVPTRVLPRFGFNELGYKSFMDHAKRFGETKGIIINTYAELEPYALKSLLDAYDTAPVYAVGPVLDLRSQVHMPCDAAERARIMGWLDKQPDSSVVFLCFGSGGSFSEHQIREISKGLSQSGQRFLWSVRKPPTGGLVKPTEYTETELRSVLGDEFWSLLDEGERGVVCGWAPQVEVLGHKSVGAFVSHCGWNSTLESLWFGKPMVTWPLYAEQQMNAFELVKELGIAVELTLDYRLHSSEVVEAREVERAVRRVMDENNPVRYKVKEMAEVCRATLVEGGSSFVCVDRLISGFLGEIN
B2: enzyme (Bacillus pumilus, UniProt A8FFI9); chain EARSIAWSVDEFFKNREGTFVIQEVKEKSPWVYNKKRAKERFAPQSTFKVANALIGLQTGAVRDEYDIKYWDGVKREIDNWNRDHTLGSGMRDSVVWYYQAMARDIGEERMNHWVKAIHYGNKDISGGIDQFWLSSTLRISPIEQVRFLKQLYEETLPFDLKNMRTVKRMMVQEEEKHATLYGKTGSGSDIGWYVGFIKHEHKTYILATNIKGTGIEAKDITYRILKKYHLMEASV
B3: UGT3A2 A344T (Homo sapiens, UniProt Q3SY77); chain AKILTISTVGGSHYLLMDRVSQILQDHGHNVTMLNHKRGPFMPDFKKEEKSYQVISWLAPEDHQREFKKSFDFFLEETLGGRGKFENLLNVLEYLALQCSHFLNRKDIMDSLKNENFDMVIVETFDYCPFLIAEKLGKPFVAILSTSFGSLEFGLPIPLSYVPVFRSLLTDHMDFWGRVKNFLMFFSFCRRQQHMQSTFDNTIKEHFTEGSRPVLSHLLLKAELWFINSDFAFDFARPLLPNTVYVGGLMEKPIKPVPQDLENFIAKFGDSGFVLVTLGSMVNTCQNPEIFKEMNNAFAHLPQGVIWKCQCSHWPKDVHLATNVKIVDWLPQSDLLAHPSIRLFVTHGGQNSIMEAIQHGVPMVGIPLFGDQPENMVRVEAKKFGVSIQLKKLKAETLALKMKQIMEDKRYKSAAVAASVILRSHPLSPTQRLVGWIDHVLQTGGATHLKPYVFQQPWHEQYLLDVFVFLLGLTLGTLWLCGKLLGMAVWWLRGARKVKET
B4: GTPBP3 A322P/E225K (Homo sapiens, UniProt Q969Y2); chain TRRSSGAPAPGSGATIFALSSGQGRCGIAVIRTSGPASGHALRILTAPRDLPLARHASLRLLSDPRSGEPLDRALVLWFPGPQSFTGEDCVEFHVHGGPAVVSGVLQALGSVPGLRPAEAGEFTRRAFANGKLNLTEVEGLADLIHAETEAQRRQALRQLDGELGHLCRGWAETLTKALAHVEAYIDFGEDDNLEEGVLEQADIKVRALQVALGAHLRDARRGQRLRSGVHVVVTGPPNAGKSSLVNLLSRKPVSIVSPEPGTTRDVLETPVDLAGFPVLLSDTAGLREGVGPVEQEGVRRPRERLEQADLILAMLDASDLASPSSCNFLATVVASVGAQSPSDSSQRLLLVLNKSDLLSPEGPGPGPDLPPHLLLSCLTGEGLDGLLEALRKELAAVCGDPSTDPPLLTRARHQHHLQGCLDALGHYKQSKDLALAAEALRVARGHLTRLTGGGGTEEILDIIFQDFCVGK
B5: COMT (Homo sapiens, UniProt P21964); chain MPEAPPLLLAAVLLGLVLLVVLLLLLRHWGWGLCLIGWNEFILQPIHNLLMGDTKEQRILNHVLQHAEPGNAQSVLEAIDTYCEQKEWAMNVGDKKGKIVDAVIQEHQPSVLLELGAYCGYSAVRMARLLSPGARLITIEINPDCAAITQRMVDFAGVKDKVTLVVGASQDIIPQLKKKYDVDTLDMVFLDHWKDRYLPDTLLLEECGLLRKGTVLLADNVICPGAPDFLAHVRGSSCFECTHYQSFLEYREVVDGLEKAIYKGPGSEAGP
B6: Mgst1 unactivated (Rattus norvegicus, UniProt P08011); chain ADLKQLMDNEVLMAFTSYATIILAKMMFLSSATAFQRLTNKVFANPEDCAGFGKGENAKKFLRTDEKVERVRRAHLNDLENIVPFLGIGLLYSLSGPDLSTALIHFRIFVGARIYHTIAYLTPLPQPNRGLAFFVGYGVTLSMAYRLLRSRLYL
B7: protein (Sulfurisphaera tokodaii, UniProt Q96XE7); chain MIILAFDIFGTVLDTSTVIQEFRNKQLEYTWLLTIMGKYVEFEEITKITLRYILKVRGEESKFDEELNKWKNLKAYEDTKYLKEISEIAEVYALSNGSINEVKQHLERNGLLRYFKGIFSAESVKEYKPSPKVYKYFLDSIGAKEAFLVSSNAFDVIGAKNAGMRSIFVNRKNTIVDPIGGKPDVIVNDFKELYEWILRYK
B8: sacB Y247F (Priestia megaterium, UniProt D5DC07); chain KGNDSKDFNNSYGISHITRDNMVKIPQQQNSDQFKVPAFDESTIKNIASAKGKNASGNTIDLDVWDSWPLQNADGTVATYHGYQIVFALAGDPKDSNDTSVYLFYKKAGDKSIDSWKNAGRVFKDSDKFVPNDPHLKNQTQEWSGSGTLTKDGKVRLFYTDYSGKQYGKQTLTTAQVNMSQPNDNTLKVDGVEDYKSIFDGDGKIYQTVQQFIDEGGFDTGDNHTLRDPHYIEDNGHKYLVFEANTGTEDGYQGEDSLYNRAYYGGNNPFFQSEKKKLLEGSNKEKASLANGALGIIELNDDYTLKKVMKPLITSNTVTDEIERANIFKKDGKWYLFTDSRGSKMTIDGIGQDDVYMLGYVSNTLTGKYKPLNDTGLVLHMDLDPNDKTFTYSHFAVPQTKGDNVVITSYMTNRGFYEDNHSTFAPSFLVNIDGSKTSVVKDRVLEQGQLTVDED
B9: MTRR A129T (Homo sapiens, UniProt Q9UBK8); chain MRRFLLLYATQQGQAKAIAEEICEQAVVHGFSADLHCISESDKYDLKTETAPLVVVVSTTGTGDPPDTARKFVKEIQNQTLPVDFFAHLRYGLLGLGDSEYTYFCNGGKIIDKRLQELGARHFYDTGHTDDCVGLELVVEPWIAGLWPALRKHFRSSRGQEEISGALPVASPASSRTDLVKSELLHIESQVELLRFDDSGRKDSEVLKQNAVNSNQSNVVIEDFESSLTRSVPPLSQASLNIPGLPPEYLQVHLQESLGQEESQVSVTSADPVFQVPISKAVQLTTNDAIKTTLLVELDISNTDFSYQPGDAFSVICPNSDSEVQSLLQRLQLEDKREHCVLLKIKADTKKKGATLPQHIPAGCSLQFIFTWCLEIRAIPKKAFLRALVDYTSDSAEKRRLQELCSKQGAADYSRFVRDACACLLDLLLAFPSCQPPLSLLLEHLPKLQPRPYSCASSSLFHPGKLHFVFNIVEFLSTATTEVLRKGVCTGWLALLVASVLQPNIHASHEDSGKALAPKISISPRTTNSFHLPDDPSIPIIMVGPGTGIAPFIGFLQHREKLQEQHPDGNFGAMWLFFGCRHKDRDYLFRKELRHFLKHGILTHLKVSFSRDAPVGEEEAPAKYVQDNIQLHGQQVARILLQENGHIYVCGDAKNMAKDVHDALVQIISKEVGVEKLEAMKTLATLKEEKRYLQDIWS
Chain of UniProt O43174 (whole entry, looked up): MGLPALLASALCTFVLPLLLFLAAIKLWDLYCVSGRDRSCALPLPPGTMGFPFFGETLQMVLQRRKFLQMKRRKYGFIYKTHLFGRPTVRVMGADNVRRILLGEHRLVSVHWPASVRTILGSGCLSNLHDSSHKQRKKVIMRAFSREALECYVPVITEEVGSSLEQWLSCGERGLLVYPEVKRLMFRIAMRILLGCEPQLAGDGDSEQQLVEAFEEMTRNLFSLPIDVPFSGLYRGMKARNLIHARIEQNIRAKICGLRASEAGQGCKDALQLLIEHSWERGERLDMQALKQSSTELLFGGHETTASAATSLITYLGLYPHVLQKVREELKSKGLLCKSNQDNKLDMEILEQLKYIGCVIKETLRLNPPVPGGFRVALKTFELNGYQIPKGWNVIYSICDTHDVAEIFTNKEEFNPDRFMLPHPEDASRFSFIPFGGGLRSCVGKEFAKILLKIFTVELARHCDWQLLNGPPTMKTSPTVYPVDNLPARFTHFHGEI

| Molecule | substrate | medium | pH | temperature | notes | together with | Km |
| --- | --- | --- | --- | --- | --- | --- | --- |
| CYP2C9 (Homo sapiens, UniProt P11712) | Cc1ccc(Nc2c(F)cccc2Cl)c(CC(=O)O)c1 | – | pH 7.4 | – | Hill model, CYP2C9, metabolite, not purified | – | 15.4 µM |
| B1 (protein) | O=c1c(O)c(-c2ccc(O)cc2)oc2cc(O)cc(O)c12 | – | pH 7.5 | 35 °C | apparent | UDP-glucose | 518 µM |
| Hpo (Pseudomonas putida, UniProt F8G0M1) | Oc1ccc(O)nc1 | – | pH 7.5 | 20 °C | – | O2; Fe2+ 0.025 mM | 138 µM |
| B2 (enzyme) | CC(=O)OCC1=C(C(=O)O)N2C(=O)[C@@H](NC(=O)Cc3cccs3)[C@H]2SC1 | – | pH 7 | – | – | – | 60 µM |
| B3 (UGT3A2 A344T) | O=c1ccn([C@@H]2O[C@H](CO[P@@](=O)(O)O[P@@](=O)(O)O[C@H]3O[C@H](CO)[C@@H](O)[C@H](O)[C@H]3O)[C@@H](O)[C@H]2O)c(=O)[nH]1 | – | pH 7.4 | 37 °C | not purified | 1-OH-pyrene 16 µM, MgCl2 10 mM, alamethicin | 597 µM |
| CYP26A1 (Homo sapiens, UniProt O43174) | CC1=C(/C=C/C(C)=C/C=C/C(C)=C/C(=O)O)C(C)(C)CCC1 | – | – | 37 °C | not purified | – | 0.0501 µM and 0.0489 µM |
| B4 (GTPBP3 A322P/E225K) | Nc1nc2c(ncn2[C@@H]2O[C@H](COP(=O)(O)OP(=O)(O)OP(=O)(O)O)[C@@H](O)[C@H]2O)c(=O)[nH]1 | – | pH 8 | 37 °C | KCl 300 mM | – | 37.8 µM |
| B5 (COMT) | O=c1oc2c(O)c(O)ccc2cc1-c1nc2ccccc2s1 | human liver S9 | pH 7.4 | 37 °C | – | – | 1.6 µM |
| B6 (Mgst1 unactivated) | NC(=O)c1ccc(Cl)c([N+](=O)[O-])c1 | – | pH 6.5 | 5 °C | potassium phosphate 0.1 M, unactivated enzyme | GSH 5 mM | 34 µM |
| B7 (protein) | C[C@H](Cl)C(=O)O | – | pH 9.5 | 70 °C | – | – | 1250 µM |
| B8 (sacB Y247F) | OC[C@H]1O[C@@](CO)(O[C@H]2O[C@H](CO)[C@@H](O)[C@H](O)[C@H]2O)[C@@H](O)[C@@H]1O | – | pH 6.9 | – | – | – | 21900 µM |
| B9 (MTRR A129T) | COc1cccc2c1C(=O)c1c(O)c3c(c(O)c1C2=O)C[C@@](O)(C(=O)CO)C[C@@H]3O[C@H]1C[C@H](N)[C@H](O)[C@H](C)O1 | – | pH 7.5 | 37 °C | substoichiometric FMN | NADPH | 137 µM |

Excerpt of the above:
| Molecule | substrate | medium | pH | temperature | notes | together with | Km |
| --- | --- | --- | --- | --- | --- | --- | --- |
| B7 (protein) | C[C@H](Cl)C(=O)O | – | pH 9.5 | 70 °C | – | – | 1250 µM |
